Measured values collected from several papers.
Each numbered part is a random draw from the data of one study; scales do not carry over between parts. Substitutions count along the parent as printed.

Set 1 — method: RNA Bind-n-Seq; form: RNA; sample: in vitro; concentration: 200 nM; setting: whole 134-nt RNA, ends assumed; together with: 150 mM LiCl; relative to: input library; direction: higher = stronger binding; endpoint: log2 enrichment; each molecule: 7-deaza-guanosine replaces G
Target: Ras GTPase-activating protein-binding protein 1, full length (G3BP1, Homo sapiens, UniProt Q13283)
Sequence of UniProt Q13283 (whole entry, looked up): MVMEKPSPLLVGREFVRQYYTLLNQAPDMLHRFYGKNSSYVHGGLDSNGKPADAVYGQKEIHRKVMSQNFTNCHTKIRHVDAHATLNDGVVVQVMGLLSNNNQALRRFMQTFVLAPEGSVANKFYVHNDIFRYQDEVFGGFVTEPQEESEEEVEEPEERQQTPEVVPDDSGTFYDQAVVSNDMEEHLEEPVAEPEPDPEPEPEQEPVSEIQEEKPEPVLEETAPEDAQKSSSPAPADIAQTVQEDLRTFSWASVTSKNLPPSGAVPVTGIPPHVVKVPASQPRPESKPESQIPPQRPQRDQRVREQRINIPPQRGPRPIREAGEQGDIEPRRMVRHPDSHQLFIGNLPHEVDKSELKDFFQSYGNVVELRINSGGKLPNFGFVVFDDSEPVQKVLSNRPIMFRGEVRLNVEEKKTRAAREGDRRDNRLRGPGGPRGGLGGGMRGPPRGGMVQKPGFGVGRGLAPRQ
All sequences stand within: GGGAGUUCUACAGUCCGACGAUC … UGGAAUUCUCGGGUGUCAAGG
Oligonucleotide = ACCAUGCAGGAAAGCAUCUUUGGGAAGUGGGGCAAGGGGGGGAUAGGGAGGGGGGUAACACUUUGGGAACAGGUGGUCCCAGGUCGUUUC; result = 0.035
Oligonucleotide = CACAGACAACACGCACCCACACAGACACAGAGGGAAGGGGUUGGGAUGGGGACAGGGUGCACAGCAGGGCGGGGUAAAACCCCAGCCCCU; result = 1.08
Oligonucleotide = GCAGGAAGUAAAAACAAAUGGAAAUGCUUCGGAUAGUGGCAGAAAUGGGGGUUGCUAAGGAAAGGGUGGGAUGGGAGUGGGUAAAGAGUU; result = 0.196
Oligonucleotide = UGGGAGGUGGAUUUUGUUUAUUUUUUUAGCUCAUUUCCAGGGGUGGGAAUUUAUUUUUAAUAUGUGUCAUGAAUAAAGUUGUUUUUGAAA; result = -0.431
Oligonucleotide = AAGUCCUGUGCUACACAUCGUAUGUACCGAAUCGGGAAAAGGGGAAAAGGAAAAGGAAAGUAUUAUGUUACGCCGUUCGGAUCUGCACUU; result = -0.0485
Oligonucleotide = GCAGGAAGUAAAAACAAAUGGAAAUGCUUCGGAUAGUGGUAGGGGUGGGGGUUGCUAAGGAAAGGGUGGGAUGGGAGUGGGUAAAGAGUU; result = 0.369
Oligonucleotide = UCCUGUGCUACACAUCGUAUGUACCGAAUCGGAAAAAAAGGUUUUUUUGGAAAAAAAGGAAAGUAUUAUGUUACGCCGUUCGGAUCUGCA; result = -1.77
Oligonucleotide = CACAGACAACACGCACCCACACAGACACAGAGGGAAGGGGUUGGGAUGGGGAAAAGGUGCACAGCAGGGCGGGGUAGGACCCCAGCCCCU; result = -0.044

Set 2 — target: CCND2, cyclin fold, Cln2 fusion (human); method: yeast growth competition, sequencing; sample: yeast; setting: weak parent motif; relative to: not given; direction: higher = stronger binding; endpoint: normalised enrichment score
Parent: SCAPER docking peptide (human); SNARRSLNFGGST; partner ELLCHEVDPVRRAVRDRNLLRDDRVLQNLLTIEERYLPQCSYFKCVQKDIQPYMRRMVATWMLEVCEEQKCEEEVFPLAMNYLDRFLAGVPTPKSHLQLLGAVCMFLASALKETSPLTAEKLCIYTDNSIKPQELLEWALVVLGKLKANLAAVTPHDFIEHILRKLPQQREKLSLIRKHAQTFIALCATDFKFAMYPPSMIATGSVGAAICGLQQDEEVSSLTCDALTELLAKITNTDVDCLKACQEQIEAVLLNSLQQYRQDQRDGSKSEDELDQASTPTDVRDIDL
Variant = N2F; result = 0.658
Variant = T13R; result = 0.479
Variant = T13E; result = 0.548
Variant = N2L; result = 0.243
Variant = N2E; result = 0.301
Variant = S1I; result = 0.181
Variant = S6C; result = 1.14
Variant = N2K; result = 0.477
Variant = S6W; result = 0.399

Set 3 — method: RNA Bind-n-Seq; form: RNA; sample: in vitro; concentration: 365 nM; relative to: no-protein control; direction: higher = stronger binding; endpoint: RBNS enrichment (R)
Target: RNA binding protein fox-1 homolog 2, RRM domain, GST-SBP tag (RBFOX2, Homo sapiens, UniProt O43251-10, residues 100-194)
Setting: natural RNA segment, single round, ends assumed
All sequences stand within: GGGAGUUCUACAGUCCGACGAUC … UGGAAUUCUCGGGUGCCAA
Residues (chain): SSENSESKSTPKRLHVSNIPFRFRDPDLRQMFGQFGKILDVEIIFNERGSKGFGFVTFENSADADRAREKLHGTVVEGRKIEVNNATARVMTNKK
Oligonucleotide = AAGAUGGCCCCCGCACAGCCUUCAUCUCAUCCUGUGGGACUCUGACGUCACAGAACACCCAGGAAAGGGGAUUUCUGUGGUAUCACCGAGAACAUGUUAGCAGUCUGUCA; result = 0.282
Oligonucleotide = CUGCGGUGGGCUGAUGAGCUGCUUGCAUUUCUGUGACAUUUCCAGAUAUGAUUCUCAGUGGGAUUUUGGAAACUUUGAUUGCUCAAGCUCACCCUUCUUAACAUUCUGUA; result = 1.13
Oligonucleotide = CUCAUAAUUCUUAACACCUGGCAUUUCCAUUUCUAAAGAUGGACAGGCCCUUUGGCGUGGUACCAACCAGAUAAUGACUGCAUCAGGAUGAAAGCUGCUGAACUCGGCAU; result = 0.272
Oligonucleotide = CCUUCCCUUCCCUUCCCAUCCGCCAUAUUUCUUCAGCCUUUCUUCUCGAUCACCCGUGUAUUCUUUGACCAGUAAAUGACCACACCUCAAUGAUGGUAAAACAGCAUCAU; result = 1.06
Oligonucleotide = CUCUGUUUAAUGAUCGGCCUUUCACCUCUUCACUUAUCCUUAGUCCCAGUAGCCAGGAUACCUGAUGGCCACGUGUGCCUUGGCCACGGGAGGCUGCUGAGAUUGGCCAC; result = 0.333
Oligonucleotide = UUCUUGGUAGCCCUGGUUUGCAUUGCUUUGUGUUUCCACACCCGAGGCUGUGUGGGCGGGUGCAUGUGCACCGUGGAGUGCACACAAGGGGACUGUCAAUCACAGGGUUU; result = 1.25
Oligonucleotide = AGUGCUCACAGUACUCAUGUGGGGCAGCCACACUAACUGCAUUAGCAGUGUGGUUACUUCUUUCUUCUGCCUCGACUCACAUGGCUUCUCCCCACGAAGGUCCCAGGGUG; result = 0.337
Oligonucleotide = CACACUCAAUGAACCCCACCAGAGGGGGACGAGGGGCAGGGCUGUCAGCUGCUGCUUCUGGGCCACAGGGGGGGCCCCCAGGACCUUGCACUUUAUUCCUGCCCACGUGG; result = 0.497

Single results of other studies
Molecule = PhoQ, residues 284 288 289 292 302 303 ALASRC; target = PhoP, residues 12 14 15 18 19 AWHSL (Escherichia coli, UniProt P23836); test = Sort-seq, refers to: YFP reporter; test system = E. coli; setting = PhoQ-PhoP variant library, together with: 10 µM Mg2+; how to read = relative to: high Mg2+ state, higher = stronger signaling; endpoint = fold induction; result = 1.95

Some of these lines once more (set 3):
Oligonucleotide = CUCUGUUUAAUGAUCGGCCUUUCACCUCUUCACUUAUCCUUAGUCCCAGUAGCCAGGAUACCUGAUGGCCACGUGUGCCUUGGCCACGGGAGGCUGCUGAGAUUGGCCAC; result = 0.333
Oligonucleotide = UUCUUGGUAGCCCUGGUUUGCAUUGCUUUGUGUUUCCACACCCGAGGCUGUGUGGGCGGGUGCAUGUGCACCGUGGAGUGCACACAAGGGGACUGUCAAUCACAGGGUUU; result = 1.25
